Experimental data collected from several papers.
Each numbered part is a random draw from the data of one study; scales do not carry over between parts. Values joined by “and” are separate records of one study, mostly repeats; a detail may differ.
UniProt P46098, sequence (whole entry, looked up): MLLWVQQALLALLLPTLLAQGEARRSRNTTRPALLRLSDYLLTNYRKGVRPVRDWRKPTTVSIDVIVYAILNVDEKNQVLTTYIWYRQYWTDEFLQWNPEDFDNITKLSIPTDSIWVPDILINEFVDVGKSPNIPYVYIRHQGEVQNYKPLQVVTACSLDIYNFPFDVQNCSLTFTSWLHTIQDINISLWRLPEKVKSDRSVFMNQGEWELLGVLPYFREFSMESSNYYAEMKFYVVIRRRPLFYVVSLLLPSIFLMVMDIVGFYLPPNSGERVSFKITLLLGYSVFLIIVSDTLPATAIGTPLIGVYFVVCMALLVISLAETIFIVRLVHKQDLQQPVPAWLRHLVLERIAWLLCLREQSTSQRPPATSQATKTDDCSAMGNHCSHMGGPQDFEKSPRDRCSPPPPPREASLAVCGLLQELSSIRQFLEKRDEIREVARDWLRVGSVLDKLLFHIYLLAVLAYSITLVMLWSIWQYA

Series 1
SMILES: CC(=O)N[C@@H](Cc1c[nH]c2ccccc12)C(=O)N[C@@H](CCC(=O)C=[N+]=[N-])C(=O)OC(C)C
Method: UPLC-MS/MS metabolomics
Host: C57BL/6 CES1-/- mice, EL4 tumour
Sample: EL4 tumour
Route: subcutaneous
Dose: 0.3 mg/kg/day DON equivalent
Time: 5 days
Notes: normalised to tissue mass
For measured: S-lactoylglutathione: peak intensity read 539000 a.u. and 622000 a.u. and 924000 a.u. and 1.35e+06 a.u.
measured: NAD+ — peak intensity: 188000 a.u. and 173000 a.u. and 200000 a.u. and 54300 a.u. and 193000 a.u. and 110000 a.u.
measured: S-methylglutathione — peak intensity: 187000 a.u. and 573000 a.u. and 124000 a.u. and 802000 a.u. and 719000 a.u. and 721000 a.u.
measured: N6-methyllysine — peak intensity: 2.26e+07 a.u. and 2.35e+07 a.u. and 3.72e+07 a.u. and 2.08e+07 a.u. and 3.64e+07 a.u. and 3.87e+07 a.u.
The peak intensity was 355000 a.u. and 178000 a.u. and 232000 a.u. and 195000 a.u. (measured: N2-acetyllysine).
It gave 5.78e+06 a.u. and 4.75e+06 a.u. and 4.12e+06 a.u. and 5.89e+06 a.u. and 6.88e+06 a.u. and 6.14e+06 a.u. for peak intensity (measured: acetylphosphate).
The peak intensity was 2.45e+07 a.u. and 2.92e+07 a.u. and 3.05e+07 a.u. and 9.81e+06 a.u. and 2.09e+07 a.u. and 9.56e+06 a.u. (measured: UDP-N-acetylglucosamine/galactosamine).

Series 2
Organism: Sarcocystis neurona
Observed: parasite activity
Concentration: 10 µM
Time: 96 h
For Nc1nc(N)nc(-c2cc(Cl)ccc2Cl)n1, activity class read “inactive”.
Nc1ccc(O)c(C(=O)O)c1 — result for activity class: “inactive”.
For Cc1ccc(C)c(OCCCC(C)(C)C(=O)O)c1, activity class read “inactive”.
Under activity class, CCCc1nc(C(C)(C)O)c(C(=O)OCc2oc(=O)oc2C)n1Cc1ccc(-c2ccccc2-c2nnn[nH]2)cc1 is recorded as “inactive”.
COc1ccc2c(c1)c(CC(=O)O)c(C)n2C(=O)c1ccc(Cl)cc1: activity class “inactive”.
For CNCCCN1c2ccccc2CCc2ccccc21, activity class read “inactive”.
Nc1nc(O)c2ncn(COC(CO)CO)c2n1: activity class “inactive”.
N[C@@H]1CON=C1O: activity class “inactive”.

Series 3
Structure (SMILES): CC(C)n1cnc(-c2ccc(F)cc2)c1-c1ncc(C(=O)Nc2ccc(N3CCN(C)CC3)cc2)[nH]1
Method: phase 2a trial
Host: idiopathic pulmonary fibrosis patients
30 mg once daily, grade 3 emergent event — “patients with fatigue”: 0%.
For all arms pooled, grade 5 emergent event: “patients with fatigue” read 0%.
The “patients with fatigue” was 0% (all arms pooled, grade 2 emergent event).
The “patients with fatigue” was 0% (60 mg once daily, grade 5 emergent event).
The “patients with fatigue” was 0% (60 mg once daily, grade 2 emergent event).
60 mg once daily, grade 4 emergent event — “patients with fatigue”: 0%.

Mixed results
With CN([C@@H]1CCc2c(CC(=O)O)c3cc(S(C)(=O)=O)ccc3n2C1)S(=O)(=O)c1ccc(F)cc1 the inhibition was -2.99% (5-hydroxytryptamine receptor 3A (HTR3A, Homo sapiens, UniProt P46098); binding, radioligand binding; 10 µM).
